Measurements collected from several papers.
A part holds a random share of what one study measured. Positions count from the first letter of the parent shown.
UniProt Q9H093, sequence (whole entry, looked up): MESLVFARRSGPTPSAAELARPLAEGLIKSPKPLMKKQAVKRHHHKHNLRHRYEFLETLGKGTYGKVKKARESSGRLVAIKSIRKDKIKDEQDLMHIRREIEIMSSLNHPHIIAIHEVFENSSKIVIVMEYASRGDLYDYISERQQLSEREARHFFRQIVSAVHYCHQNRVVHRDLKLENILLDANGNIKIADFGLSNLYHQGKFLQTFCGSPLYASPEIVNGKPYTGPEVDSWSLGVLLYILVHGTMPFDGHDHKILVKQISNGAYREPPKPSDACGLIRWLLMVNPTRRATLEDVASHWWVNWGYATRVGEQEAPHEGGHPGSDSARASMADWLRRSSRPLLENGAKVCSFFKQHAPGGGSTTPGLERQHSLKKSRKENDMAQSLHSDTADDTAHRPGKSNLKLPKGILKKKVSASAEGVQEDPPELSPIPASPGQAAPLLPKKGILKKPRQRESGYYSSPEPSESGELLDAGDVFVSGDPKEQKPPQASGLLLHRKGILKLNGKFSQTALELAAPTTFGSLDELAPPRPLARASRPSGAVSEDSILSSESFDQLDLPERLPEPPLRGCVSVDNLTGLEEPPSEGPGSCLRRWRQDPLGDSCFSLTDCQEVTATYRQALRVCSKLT
UniProt Q9NQU5, sequence (whole entry, looked up): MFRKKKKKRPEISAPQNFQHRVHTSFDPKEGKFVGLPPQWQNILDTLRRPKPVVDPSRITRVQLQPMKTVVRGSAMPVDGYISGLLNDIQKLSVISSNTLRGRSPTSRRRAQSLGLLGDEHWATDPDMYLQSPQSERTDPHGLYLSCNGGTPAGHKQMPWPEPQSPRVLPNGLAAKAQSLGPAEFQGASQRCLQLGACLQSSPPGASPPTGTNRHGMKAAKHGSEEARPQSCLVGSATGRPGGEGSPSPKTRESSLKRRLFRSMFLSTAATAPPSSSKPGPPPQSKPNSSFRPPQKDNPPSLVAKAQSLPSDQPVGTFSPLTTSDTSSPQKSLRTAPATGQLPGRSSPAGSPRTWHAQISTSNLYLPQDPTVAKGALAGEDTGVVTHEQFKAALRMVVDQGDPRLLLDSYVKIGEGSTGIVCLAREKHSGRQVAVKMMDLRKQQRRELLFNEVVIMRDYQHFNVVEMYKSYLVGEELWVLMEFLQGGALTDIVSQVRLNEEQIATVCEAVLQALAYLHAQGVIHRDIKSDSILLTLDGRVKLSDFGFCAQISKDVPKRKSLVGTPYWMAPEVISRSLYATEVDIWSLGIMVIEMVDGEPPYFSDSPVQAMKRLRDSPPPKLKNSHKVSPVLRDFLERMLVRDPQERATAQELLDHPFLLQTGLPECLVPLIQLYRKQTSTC

Block 1
Target: Sal-like protein 4, full length isoform B (SALL4, Homo sapiens, UniProt Q9UJQ4-2, residues 1-616)
Technique: universal PBM
Form: double-stranded DNA, one strand shown
Sample: in vitro
Concentration: not given
Notes: 8-mer, flanks averaged, mean of replicates
Reading: higher = stronger binding
Strand | E-score
ACAATTCT | 0.166
AAATAGCC | 0.0323
CGATGAGA | 0.0339
CAGATCTG | -0.287
CGCGATAG | -0.0766
TGGGCAAA | -0.0615
CGTGAGGA | -0.141
ACCACCCT | -0.272

Block 2
Target: CCNB2, cyclin fold, Cln2 fusion (human)
Technique: yeast growth competition, sequencing
Sample: yeast
Notes: weak parent motif
Relative to: not given
Reading: higher = stronger binding
Starting sequence: CDKN1B docking peptide (human); PSACRNLFGPVDH; partner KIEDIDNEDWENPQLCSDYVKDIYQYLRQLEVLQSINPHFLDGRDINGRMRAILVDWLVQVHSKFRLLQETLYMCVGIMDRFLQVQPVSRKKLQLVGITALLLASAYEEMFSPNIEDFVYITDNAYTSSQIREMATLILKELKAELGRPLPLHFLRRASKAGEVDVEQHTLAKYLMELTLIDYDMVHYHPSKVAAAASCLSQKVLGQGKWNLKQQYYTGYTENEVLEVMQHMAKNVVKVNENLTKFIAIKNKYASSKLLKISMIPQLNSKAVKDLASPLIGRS
Variant | normalised enrichment score
PSACRNLFGPVTH [D12T] | 0.0123
PSACRNLFGPMDH [V11M] | 0.17
PSACRNLFRPVDH [G9R] | -0.108
PSAHRNLFGPVDH [C4H] | 0.0756
PSACRNLFGQVDH [P10Q] | 0.207
PSACRNLFCPVDH [G9C] | 0.408
PSACRNLCGPVDH [F8C] | -0.308
PSACRNNFGPVDH [L7N] | -0.15

Mixed results
Compound | target | test | setting | how to read | quantity | value
COc1cc2c(Nc3ccc(Br)cc3F)ncnc2cc1OCC1CCN(C)CC1 | PAK6 (Homo sapiens, UniProt Q9NQU5) | enzyme activity, inhibitor | 0.5 µM | relative to: control | remaining activity | 105%
CC1=C(C#N)[C@@H](c2ccc3[nH]nc(C)c3c2)C(C#N)=C(c2ccc(Cl)cc2)N1 | NUAK2 (Homo sapiens, UniProt Q9H093) | cell-free assay, competition with immobilised ligand | 1 µM | – | remaining binding | 100%
